Measurements from different studies.
Lines come from different studies, so protocols differ. Numbers after ± are the reported error.
HCK Y411F: Tyrosine-protein kinase HCK (HCK, Homo sapiens, UniProt P08631, Y411F)
UniProt P08631, sequence (whole entry, unmodified, looked up): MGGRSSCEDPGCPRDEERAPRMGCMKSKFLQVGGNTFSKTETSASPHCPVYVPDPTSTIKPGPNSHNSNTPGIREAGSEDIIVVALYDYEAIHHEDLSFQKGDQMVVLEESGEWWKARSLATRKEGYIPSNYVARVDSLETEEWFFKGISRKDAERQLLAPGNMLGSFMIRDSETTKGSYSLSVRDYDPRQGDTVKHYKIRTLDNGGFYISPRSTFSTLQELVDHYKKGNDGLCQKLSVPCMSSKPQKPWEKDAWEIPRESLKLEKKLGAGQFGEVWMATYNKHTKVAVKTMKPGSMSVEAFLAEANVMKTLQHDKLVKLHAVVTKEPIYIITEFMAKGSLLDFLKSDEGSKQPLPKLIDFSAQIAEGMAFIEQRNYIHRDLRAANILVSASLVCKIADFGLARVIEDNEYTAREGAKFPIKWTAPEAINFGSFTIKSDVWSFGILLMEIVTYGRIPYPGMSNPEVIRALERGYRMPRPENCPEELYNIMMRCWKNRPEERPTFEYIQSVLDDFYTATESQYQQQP
CNR1 I245M: Cannabinoid receptor 1 (CNR1, Homo sapiens, UniProt P21554, I245M)
UniProt P21554, sequence (whole entry, unmodified, looked up): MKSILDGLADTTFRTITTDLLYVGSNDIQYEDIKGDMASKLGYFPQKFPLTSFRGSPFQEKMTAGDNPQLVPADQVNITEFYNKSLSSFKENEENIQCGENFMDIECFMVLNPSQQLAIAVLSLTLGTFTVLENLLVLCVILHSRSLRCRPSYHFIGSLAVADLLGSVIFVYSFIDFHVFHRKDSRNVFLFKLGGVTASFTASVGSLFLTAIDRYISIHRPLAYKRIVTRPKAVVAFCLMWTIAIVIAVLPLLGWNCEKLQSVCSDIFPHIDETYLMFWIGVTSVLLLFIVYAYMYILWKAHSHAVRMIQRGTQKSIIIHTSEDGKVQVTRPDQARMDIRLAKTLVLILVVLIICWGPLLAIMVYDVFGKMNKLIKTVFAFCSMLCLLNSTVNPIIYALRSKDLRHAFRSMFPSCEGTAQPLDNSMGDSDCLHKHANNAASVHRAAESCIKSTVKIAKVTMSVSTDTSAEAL
tmk: Thymidylate kinase (tmk, Mycobacterium tuberculosis, UniProt P9WKE1)
UniProt P9WKE1, sequence (whole entry, looked up): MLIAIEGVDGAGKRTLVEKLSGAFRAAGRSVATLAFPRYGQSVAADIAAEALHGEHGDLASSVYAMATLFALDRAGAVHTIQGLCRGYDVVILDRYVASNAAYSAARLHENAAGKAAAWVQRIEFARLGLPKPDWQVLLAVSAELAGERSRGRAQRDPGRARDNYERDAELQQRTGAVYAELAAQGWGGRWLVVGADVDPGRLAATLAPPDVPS
UniProt O95619, sequence (whole entry, unmodified, looked up): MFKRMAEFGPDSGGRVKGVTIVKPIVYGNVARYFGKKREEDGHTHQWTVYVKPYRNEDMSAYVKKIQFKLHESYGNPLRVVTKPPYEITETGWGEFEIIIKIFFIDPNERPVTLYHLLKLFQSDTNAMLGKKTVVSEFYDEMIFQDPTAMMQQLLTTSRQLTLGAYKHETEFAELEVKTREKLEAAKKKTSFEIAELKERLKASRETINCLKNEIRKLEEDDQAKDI
UniProt P34972, sequence (whole entry, looked up): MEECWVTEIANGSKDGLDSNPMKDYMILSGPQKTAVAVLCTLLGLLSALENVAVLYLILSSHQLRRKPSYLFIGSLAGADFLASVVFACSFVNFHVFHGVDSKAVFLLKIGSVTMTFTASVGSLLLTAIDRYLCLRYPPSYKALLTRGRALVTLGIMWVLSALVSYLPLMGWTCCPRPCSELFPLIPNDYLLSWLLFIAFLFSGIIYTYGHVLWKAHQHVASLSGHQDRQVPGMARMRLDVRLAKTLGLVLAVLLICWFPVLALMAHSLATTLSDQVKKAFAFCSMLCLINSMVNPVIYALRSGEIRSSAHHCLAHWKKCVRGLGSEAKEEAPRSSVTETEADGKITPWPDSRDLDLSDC
UniProt P41586, sequence (whole entry, unmodified, looked up): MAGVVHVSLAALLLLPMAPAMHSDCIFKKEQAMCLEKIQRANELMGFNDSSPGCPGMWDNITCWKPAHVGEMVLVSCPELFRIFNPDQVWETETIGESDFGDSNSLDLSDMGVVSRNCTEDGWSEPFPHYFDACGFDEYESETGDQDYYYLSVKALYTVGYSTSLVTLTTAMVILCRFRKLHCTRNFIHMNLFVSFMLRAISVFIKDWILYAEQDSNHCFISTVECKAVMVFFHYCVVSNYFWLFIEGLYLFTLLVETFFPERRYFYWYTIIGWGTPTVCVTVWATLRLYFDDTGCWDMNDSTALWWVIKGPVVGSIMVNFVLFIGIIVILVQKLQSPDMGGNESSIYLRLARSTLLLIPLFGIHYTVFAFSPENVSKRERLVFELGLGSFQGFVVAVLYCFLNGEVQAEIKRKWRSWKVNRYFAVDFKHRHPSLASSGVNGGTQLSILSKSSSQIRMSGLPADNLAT
UniProt P36507, sequence (whole entry, looked up): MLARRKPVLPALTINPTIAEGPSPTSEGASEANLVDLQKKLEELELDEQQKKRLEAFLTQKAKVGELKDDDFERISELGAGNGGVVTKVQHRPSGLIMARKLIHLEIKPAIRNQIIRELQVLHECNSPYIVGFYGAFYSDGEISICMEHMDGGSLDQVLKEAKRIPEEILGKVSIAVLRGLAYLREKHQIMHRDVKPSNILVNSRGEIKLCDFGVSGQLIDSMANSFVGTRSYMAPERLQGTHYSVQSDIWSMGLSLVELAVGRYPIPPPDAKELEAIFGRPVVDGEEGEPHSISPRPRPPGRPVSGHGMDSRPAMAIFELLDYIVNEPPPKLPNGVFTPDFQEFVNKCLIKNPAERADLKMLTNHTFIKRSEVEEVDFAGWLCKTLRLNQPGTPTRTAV
UniProt P45974, sequence (whole entry, looked up): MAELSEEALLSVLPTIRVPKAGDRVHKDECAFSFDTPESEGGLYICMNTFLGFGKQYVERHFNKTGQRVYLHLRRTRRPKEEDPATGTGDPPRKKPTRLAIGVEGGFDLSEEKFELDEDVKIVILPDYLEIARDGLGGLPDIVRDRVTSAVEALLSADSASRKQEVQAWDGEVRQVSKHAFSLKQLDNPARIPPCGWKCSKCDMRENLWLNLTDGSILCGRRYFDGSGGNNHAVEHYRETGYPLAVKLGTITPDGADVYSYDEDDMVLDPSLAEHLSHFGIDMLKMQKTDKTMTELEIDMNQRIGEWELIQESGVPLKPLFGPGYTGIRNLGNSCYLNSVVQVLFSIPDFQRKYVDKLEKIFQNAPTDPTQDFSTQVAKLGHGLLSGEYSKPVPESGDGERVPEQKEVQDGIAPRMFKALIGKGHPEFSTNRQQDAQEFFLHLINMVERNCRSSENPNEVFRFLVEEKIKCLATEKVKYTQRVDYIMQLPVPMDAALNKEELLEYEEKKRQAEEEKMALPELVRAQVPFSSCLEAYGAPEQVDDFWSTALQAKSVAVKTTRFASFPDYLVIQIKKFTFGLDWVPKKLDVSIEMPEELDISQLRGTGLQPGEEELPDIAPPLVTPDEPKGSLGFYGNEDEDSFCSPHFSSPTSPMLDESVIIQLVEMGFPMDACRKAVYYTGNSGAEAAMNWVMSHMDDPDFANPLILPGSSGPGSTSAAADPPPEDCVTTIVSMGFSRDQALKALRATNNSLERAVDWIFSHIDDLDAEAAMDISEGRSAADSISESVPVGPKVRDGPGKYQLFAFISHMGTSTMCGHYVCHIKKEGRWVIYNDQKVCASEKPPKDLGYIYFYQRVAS

SMILES	target	assay	test system	setting	how to read	measurement	value
CCCCCn1cc(C(=O)c2ccc3c(c2)CC(C)(C)C3)c2ccccc21	CNR2 (Homo sapiens, UniProt P34972)	cAMP inhibition, agonist, CAMYEL BRET biosensor	–	with: forskolin 10 µM	baseline: reference agonist at wild type	Emax	48.1 ± 4.3%
Cc1ccc(C(=O)Nc2ccc(CN3CCN(C)CC3)c(C(F)(F)F)c2)cc1C#Cc1cnc2cccnn12	HCK Y411F	–	–	concentration not given	–	bound fraction	97%
COc1ccccc1C(C[N+](=O)[O-])c1c(-c2ccccc2)[nH]c2ccccc12 (stereo not shown)	CNR1 I245M	Gαi1-γ2 dissociation, BRET	–	–	–	Emax	95.9 ± 5.08%
O=C1NC(=O)C(C2(O)C(=O)c3ccccc3C2=O)C(=O)N1	USP5 (Homo sapiens, UniProt P45974)	enzyme activity, inhibitor	–	17 µM	–	inhibition	97%
NC[C@@H](CC[C@H](N)C(=O)O)C[C@H]1O[C@@H](n2cnc3c(N)ncnc32)[C@H](O)[C@@H]1O	Replicase polyprotein 1ab, nsp10-nsp16 complex (rep, Human coronavirus 229E, UniProt P0C6X1)	–	–	–	–	Hill slope	-0.8
CCCCCn1cc(C(=O)c2ccc3ccccc3c2)c2ccccc21	CNR1 (Homo sapiens, UniProt P21554)	cAMP inhibition, agonist, CAMYEL BRET biosensor	–	with: forskolin 10 µM	baseline: reference agonist at wild type	Emax	106 ± 6.7%
Nc1ncnc2c1c(-c1ccc(Oc3ccccc3)cc1)nn2C1CCCC1	HCK Y411F	–	–	concentration not given	–	bound fraction	98%
O=C(NC1CCN(c2ncnc3[nH]cnc23)CC1)c1cccc(NS(=O)(=O)c2ccc(C(F)(F)F)cc2)c1	Replicase polyprotein 1ab, nsp14 (rep, Human coronavirus 229E, UniProt P0C6X1)	enzyme activity	–	0.04883 µM	–	inhibition	1.74%
Cc1sc2c(c1C)C(c1ccc(Cl)cc1)=N[C@@H](CC(=O)OC(C)(C)C)c1nnc(C)n1-2	Bromodomain testis-specific protein, BD1 (BRDT, Homo sapiens, UniProt Q58F21)	isothermal titration calorimetry	–	15 °C, reverse titration	–	ΔG	-8.3 kcal/mol
Cc1ccc2c(C(C[N+](=O)[O-])c3cccs3)c(-c3ccccc3)[nH]c2c1 (stereo not shown)	CNR1 I245M	Gαi1-γ2 dissociation, BRET	–	–	–	Emax	140 ± 9.45%
CCCCCn1cc(C(=O)c2cccc3ccccc23)c2ccccc21	CNR1 (Homo sapiens, UniProt P21554, I267L/L193I/L359V)	cAMP inhibition, agonist, CAMYEL BRET biosensor	–	with: forskolin 10 µM	baseline: reference agonist at wild type	Emax	97.7 ± 2.1%
CCOC(=O)C1=C(C)NC(=NN=C2C(=O)Nc3ccccc32)NC1c1ccc(F)cc1 (stereo not shown)	tmk	enzyme activity, inhibitor, absorbance	–	0.1 µg/mL	–	inhibition	40.6%
CC(=O)NCCCC[C@H](NC(=O)[C@H](CCCNC(=N)N)NC(=O)[C@H](C)N)C(=O)N[C@@H](CO)C(=O)N[C@H](C(=O)NCC(=O)NCC(=O)N[C@@H](CCCCN)C(=O)N[C@@H](C)C(=O)N1CCC[C@H]1C(=O)N[C@@H](CCCNC(=N)N)C(=O)N[C@@H](CCCCN)C(=O)N[C@@H](CCC(N)=O)C(=O)O)[C@@H](C)O	YEATS domain-containing protein 4 (Homo sapiens, UniProt O95619, E109A)	differential scanning fluorimetry	–	with: 50 µM peptide	baseline: buffer-only reference	ΔTm	0.19 ± 0.03 °C
CCOC(=O)C1=C(C)NC(=S)NC1c1ccc([N+](=O)[O-])o1 (racemic)	tmk	enzyme activity, inhibitor, absorbance	–	10 µg/mL	–	inhibition	79.3%
Nc1ccc(/C=C/C(=O)N2CCc3c(oc4c(-c5ccc(F)cc5)cc(-c5ccc(C(=O)N6CCC(F)(F)CC6)cn5)cc34)C2)cn1	MAP2K2 (Homo sapiens, UniProt P36507)	binding, competition with immobilised ligand	–	1 µM	–	remaining binding	86%
CCOC(=O)C1=C(C)NC(=NN=C2C(=O)Nc3ccc(C)cc32)NC1c1ccc(F)cc1 (stereo not shown)	tmk	enzyme activity, inhibitor, absorbance	–	10 µg/mL	–	inhibition	85.9%
CC[C@H](C)[C@H](NC(=O)[C@H](CO)NC(=O)[C@H](CC(N)=O)NC(=O)[C@H](CC(C)C)NC(=O)[C@H](Cc1ccc(O)cc1)NC(=O)[C@H](CCCCN)NC(=O)[C@H](CCCCN)NC(=O)[C@@H](NC(=O)[C@H](C)NC(=O)[C@H](CCSC)NC(=O)[C@H](CCC(N)=O)NC(=O)[C@H](CCCCN)NC(=O)[C@H](CCCNC(=N)N)NC(=O)[C@H](CC(C)C)NC(=O)[C@H](CCCNC(=N)N)NC(=O)[C@@H](NC(=O)[C@H](Cc1ccc(O)cc1)NC(=O)[C@H](CC(N)=O)NC(=O)[C@H](CC(=O)O)NC(=O)[C@@H](NC(=O)[C@H](Cc1ccccc1)NC(=O)[C@@H](NC(=O)[C@H](C)NC(=O)[C@H](CC(=O)O)NC(=O)[C@H](CO)NC(=O)[C@@H](N)Cc1c[nH]cn1)C(C)C)[C@@H](C)O)[C@@H](C)O)C(C)C)C(=O)N[C@@H](CC(C)C)C(=O)N[C@@H](CC(N)=O)C(N)=O	ADCYAP1R1 (Homo sapiens, UniProt P41586, del89-109)	calcium mobilization, agonist, Fluo-8 AM	COS-7	AUC over 2 min	–	Emax	69 ± 3%
CCCCCn1cc(C(=O)c2cccc3c2CC(C)(C)C3)c2ccccc21	CNR1 (Homo sapiens, UniProt P21554, F177A)	Gαi1 engagement, agonist, BRET	–	–	baseline: reference agonist at wild-type CB1	Emax	20.7 ± 11.1%
Cc1cn(C2CC(O)C(COP(=O)(O)O)O2)c(=O)[nH]c1=O (stereo not shown)	tmk	enzyme activity, inhibitor, absorbance	–	1 µg/mL	–	inhibition	73.5%

For quick reference, copied from above:
SMILES	target	assay	test system	setting	how to read	measurement	value
NC[C@@H](CC[C@H](N)C(=O)O)C[C@H]1O[C@@H](n2cnc3c(N)ncnc32)[C@H](O)[C@@H]1O	Replicase polyprotein 1ab, nsp10-nsp16 complex (rep, Human coronavirus 229E, UniProt P0C6X1)	–	–	–	–	Hill slope	-0.8
CCCCCn1cc(C(=O)c2ccc3ccccc3c2)c2ccccc21	CNR1 (Homo sapiens, UniProt P21554)	cAMP inhibition, agonist, CAMYEL BRET biosensor	–	with: forskolin 10 µM	baseline: reference agonist at wild type	Emax	106 ± 6.7%
Nc1ncnc2c1c(-c1ccc(Oc3ccccc3)cc1)nn2C1CCCC1	HCK Y411F	–	–	concentration not given	–	bound fraction	98%
